Assay results from different studies.
A part holds a random share of what one study measured.
UniProt P22612, sequence (whole entry, looked up): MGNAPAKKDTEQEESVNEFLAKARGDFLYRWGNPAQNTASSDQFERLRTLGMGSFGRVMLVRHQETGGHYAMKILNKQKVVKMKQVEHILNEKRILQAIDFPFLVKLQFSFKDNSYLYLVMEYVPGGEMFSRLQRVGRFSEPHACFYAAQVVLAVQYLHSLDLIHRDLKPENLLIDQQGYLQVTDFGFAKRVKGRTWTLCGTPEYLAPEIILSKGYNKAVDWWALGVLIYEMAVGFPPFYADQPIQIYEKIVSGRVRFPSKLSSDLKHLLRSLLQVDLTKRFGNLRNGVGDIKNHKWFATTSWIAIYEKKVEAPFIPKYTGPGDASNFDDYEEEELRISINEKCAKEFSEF
UniProt Q9UEE5, sequence (whole entry, looked up): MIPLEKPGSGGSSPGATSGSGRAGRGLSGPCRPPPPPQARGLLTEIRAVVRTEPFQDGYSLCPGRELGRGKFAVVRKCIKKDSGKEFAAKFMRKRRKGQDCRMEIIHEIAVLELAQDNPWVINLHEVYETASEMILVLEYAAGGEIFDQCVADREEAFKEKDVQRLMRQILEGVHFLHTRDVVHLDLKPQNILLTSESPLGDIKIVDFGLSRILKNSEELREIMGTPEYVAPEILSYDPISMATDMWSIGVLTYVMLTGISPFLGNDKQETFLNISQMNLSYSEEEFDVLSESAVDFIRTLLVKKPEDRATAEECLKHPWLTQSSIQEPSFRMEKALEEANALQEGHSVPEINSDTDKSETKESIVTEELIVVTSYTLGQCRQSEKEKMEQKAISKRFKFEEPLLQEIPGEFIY
UniProt P42679, sequence (whole entry, looked up): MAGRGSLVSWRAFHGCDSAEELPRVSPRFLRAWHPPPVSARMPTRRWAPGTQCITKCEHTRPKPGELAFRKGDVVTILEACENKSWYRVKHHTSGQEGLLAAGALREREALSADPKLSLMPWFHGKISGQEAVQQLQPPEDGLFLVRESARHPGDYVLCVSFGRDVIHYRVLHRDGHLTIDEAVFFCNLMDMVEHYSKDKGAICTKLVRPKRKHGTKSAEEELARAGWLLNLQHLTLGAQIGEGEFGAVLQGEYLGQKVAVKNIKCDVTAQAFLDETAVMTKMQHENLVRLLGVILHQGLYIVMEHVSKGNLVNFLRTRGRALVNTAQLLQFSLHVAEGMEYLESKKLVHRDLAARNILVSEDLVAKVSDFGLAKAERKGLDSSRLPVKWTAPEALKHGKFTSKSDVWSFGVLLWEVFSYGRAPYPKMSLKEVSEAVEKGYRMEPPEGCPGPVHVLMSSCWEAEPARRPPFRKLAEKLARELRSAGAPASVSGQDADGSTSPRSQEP
UniProt P06493, sequence (whole entry, looked up): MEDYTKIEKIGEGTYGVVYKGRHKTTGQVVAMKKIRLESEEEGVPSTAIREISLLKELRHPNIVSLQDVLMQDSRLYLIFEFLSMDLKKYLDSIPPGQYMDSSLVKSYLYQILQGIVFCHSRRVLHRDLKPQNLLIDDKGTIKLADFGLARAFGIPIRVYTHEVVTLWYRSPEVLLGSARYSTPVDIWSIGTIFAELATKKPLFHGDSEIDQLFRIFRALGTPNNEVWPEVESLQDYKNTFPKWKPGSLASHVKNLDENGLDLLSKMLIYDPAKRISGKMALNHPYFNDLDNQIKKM
UniProt O00238, sequence (whole entry, looked up): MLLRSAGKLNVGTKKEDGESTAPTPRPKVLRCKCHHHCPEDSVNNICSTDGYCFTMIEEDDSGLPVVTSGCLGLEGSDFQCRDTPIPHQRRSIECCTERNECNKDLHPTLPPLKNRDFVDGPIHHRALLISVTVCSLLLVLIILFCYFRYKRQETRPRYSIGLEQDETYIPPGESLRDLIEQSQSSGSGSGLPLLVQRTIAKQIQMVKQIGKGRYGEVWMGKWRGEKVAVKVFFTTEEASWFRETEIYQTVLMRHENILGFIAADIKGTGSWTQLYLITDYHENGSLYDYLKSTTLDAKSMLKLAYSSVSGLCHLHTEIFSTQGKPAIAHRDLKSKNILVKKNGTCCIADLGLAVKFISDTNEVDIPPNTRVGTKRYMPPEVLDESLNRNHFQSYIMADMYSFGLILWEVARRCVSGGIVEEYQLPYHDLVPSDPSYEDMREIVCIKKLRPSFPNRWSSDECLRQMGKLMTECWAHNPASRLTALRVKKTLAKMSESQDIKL
UniProt Q16816, sequence (whole entry, looked up): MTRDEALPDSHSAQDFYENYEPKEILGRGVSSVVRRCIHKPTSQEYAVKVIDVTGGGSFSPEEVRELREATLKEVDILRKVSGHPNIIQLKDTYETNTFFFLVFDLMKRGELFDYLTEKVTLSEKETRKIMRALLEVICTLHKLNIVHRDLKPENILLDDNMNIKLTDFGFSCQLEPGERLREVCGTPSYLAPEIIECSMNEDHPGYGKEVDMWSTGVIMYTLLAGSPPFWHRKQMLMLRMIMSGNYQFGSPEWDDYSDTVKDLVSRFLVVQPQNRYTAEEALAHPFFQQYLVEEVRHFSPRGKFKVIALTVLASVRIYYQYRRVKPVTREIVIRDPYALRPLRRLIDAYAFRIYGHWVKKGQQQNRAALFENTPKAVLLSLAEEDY
UniProt Q00534, sequence (whole entry, looked up): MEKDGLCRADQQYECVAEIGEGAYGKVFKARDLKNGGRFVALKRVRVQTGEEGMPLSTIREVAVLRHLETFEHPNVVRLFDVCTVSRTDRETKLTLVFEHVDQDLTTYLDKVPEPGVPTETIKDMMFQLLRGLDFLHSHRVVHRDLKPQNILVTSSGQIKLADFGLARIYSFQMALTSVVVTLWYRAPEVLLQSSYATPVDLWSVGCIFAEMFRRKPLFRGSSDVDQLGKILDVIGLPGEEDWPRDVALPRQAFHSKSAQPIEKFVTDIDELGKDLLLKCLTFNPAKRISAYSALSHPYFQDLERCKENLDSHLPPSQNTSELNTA
UniProt Q9BYP7, sequence (whole entry, looked up): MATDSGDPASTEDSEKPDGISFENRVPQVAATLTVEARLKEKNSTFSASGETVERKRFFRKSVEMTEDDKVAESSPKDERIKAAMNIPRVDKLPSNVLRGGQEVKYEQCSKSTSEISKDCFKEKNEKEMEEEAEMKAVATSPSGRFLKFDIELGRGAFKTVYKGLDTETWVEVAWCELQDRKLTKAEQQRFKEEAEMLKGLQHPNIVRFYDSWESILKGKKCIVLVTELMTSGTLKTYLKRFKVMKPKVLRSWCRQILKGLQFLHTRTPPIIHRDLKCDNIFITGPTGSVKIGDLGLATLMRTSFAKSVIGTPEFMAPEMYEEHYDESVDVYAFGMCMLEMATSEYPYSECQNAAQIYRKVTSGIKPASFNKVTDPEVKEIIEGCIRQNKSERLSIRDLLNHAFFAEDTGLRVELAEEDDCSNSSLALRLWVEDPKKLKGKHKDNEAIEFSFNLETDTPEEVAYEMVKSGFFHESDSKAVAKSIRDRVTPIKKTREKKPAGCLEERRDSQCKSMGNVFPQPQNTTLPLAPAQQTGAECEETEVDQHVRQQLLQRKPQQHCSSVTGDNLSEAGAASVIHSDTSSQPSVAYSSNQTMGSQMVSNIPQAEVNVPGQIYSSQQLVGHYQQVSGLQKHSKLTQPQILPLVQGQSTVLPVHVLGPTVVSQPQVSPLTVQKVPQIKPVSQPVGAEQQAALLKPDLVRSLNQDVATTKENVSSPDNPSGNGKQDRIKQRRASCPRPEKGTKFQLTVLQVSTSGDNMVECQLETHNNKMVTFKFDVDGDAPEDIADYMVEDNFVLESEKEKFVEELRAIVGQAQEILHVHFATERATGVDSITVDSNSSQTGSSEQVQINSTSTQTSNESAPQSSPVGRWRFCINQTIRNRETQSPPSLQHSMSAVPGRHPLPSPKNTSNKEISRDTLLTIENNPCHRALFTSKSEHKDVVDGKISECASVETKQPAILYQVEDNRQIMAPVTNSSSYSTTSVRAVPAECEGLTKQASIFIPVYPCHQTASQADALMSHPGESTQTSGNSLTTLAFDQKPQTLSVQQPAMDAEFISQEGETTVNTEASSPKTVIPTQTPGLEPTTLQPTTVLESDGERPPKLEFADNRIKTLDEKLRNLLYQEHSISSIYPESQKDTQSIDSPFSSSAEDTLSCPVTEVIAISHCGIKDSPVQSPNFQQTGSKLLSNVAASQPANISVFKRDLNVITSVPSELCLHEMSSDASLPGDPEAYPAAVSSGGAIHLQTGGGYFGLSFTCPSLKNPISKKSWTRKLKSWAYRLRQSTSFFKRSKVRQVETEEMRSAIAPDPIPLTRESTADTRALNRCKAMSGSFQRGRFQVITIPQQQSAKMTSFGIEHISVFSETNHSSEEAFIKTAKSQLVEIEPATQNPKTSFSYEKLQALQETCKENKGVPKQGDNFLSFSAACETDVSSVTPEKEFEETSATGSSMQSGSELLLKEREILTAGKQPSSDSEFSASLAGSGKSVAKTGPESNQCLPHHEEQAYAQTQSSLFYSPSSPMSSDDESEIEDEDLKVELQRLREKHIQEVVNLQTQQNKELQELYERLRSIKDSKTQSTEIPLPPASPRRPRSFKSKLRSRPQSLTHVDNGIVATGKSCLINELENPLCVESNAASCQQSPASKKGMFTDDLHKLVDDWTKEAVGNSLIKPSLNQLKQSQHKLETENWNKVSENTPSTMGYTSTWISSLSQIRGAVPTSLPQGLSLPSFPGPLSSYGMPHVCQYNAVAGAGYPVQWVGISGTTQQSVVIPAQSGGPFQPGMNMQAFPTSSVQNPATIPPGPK
UniProt O75716, sequence (whole entry, looked up): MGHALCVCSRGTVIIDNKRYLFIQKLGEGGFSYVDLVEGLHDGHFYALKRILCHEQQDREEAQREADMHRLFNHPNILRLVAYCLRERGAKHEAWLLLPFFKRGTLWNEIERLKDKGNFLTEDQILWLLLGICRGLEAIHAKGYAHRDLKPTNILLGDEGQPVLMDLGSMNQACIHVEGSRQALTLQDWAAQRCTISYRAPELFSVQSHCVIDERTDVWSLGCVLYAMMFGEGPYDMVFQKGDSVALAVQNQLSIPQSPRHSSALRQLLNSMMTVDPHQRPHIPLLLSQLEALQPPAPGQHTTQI

Study 1
SMILES: CCCC(=O)Oc1ccc2[nH]c(C(=O)c3cc4ccccc4[nH]3)cc2c1
Effect on: enzyme activity
Action: inhibitor
Concentration: 0.5 µM
Baseline: control
target	remaining activity [%]
Ribosomal protein S6 kinase alpha-6 (RPS6KA6, Homo sapiens, UniProt Q9UK32)	95.4
Ephrin type-B receptor 1 (EPHB1, Homo sapiens, UniProt P54762)	92.1
Cyclin-dependent kinase 4, with cyclin D3 (CDK4, Homo sapiens, UniProt P11802)	103
Tyrosine-protein kinase receptor UFO (AXL, Homo sapiens, UniProt P30530)	103
Testis-specific serine/threonine-protein kinase 2 (TSSK2, Homo sapiens, UniProt Q96PF2)	78
Tyrosine-protein kinase ABL1 (ABL1, Homo sapiens, UniProt P00519)	100
Phosphorylase b kinase gamma catalytic chain, skeletal muscle/heart isoform (PHKG1, Homo sapiens, UniProt Q16816)	93.7
Calcium/calmodulin-dependent protein kinase type II subunit beta (CAMK2B, Homo sapiens, UniProt Q13554)	90
Serine/threonine-protein kinase WNK3 (WNK3, Homo sapiens, UniProt Q9BYP7)	101
3-phosphoinositide-dependent protein kinase 1 (PDPK1, Homo sapiens, UniProt O15530)	101
Serine/threonine-protein kinase 17A (STK17A, Homo sapiens, UniProt Q9UEE5)	90.9
Serine/threonine-protein kinase 16 (STK16, Homo sapiens, UniProt O75716)	100
Mitogen-activated protein kinase kinase kinase kinase 4 (MAP4K4, Homo sapiens, UniProt O95819)	97.3
Cyclin-dependent kinase 6, with cyclin D3 (CDK6, Homo sapiens, UniProt Q00534)	92.5
Cyclin-dependent kinase 1, with cyclin B (CDK1, Homo sapiens, UniProt P06493)	106
Tyrosine-protein kinase Blk (BLK, Homo sapiens, UniProt P51451)	102
MAP kinase-activated protein kinase 3 (MAPKAPK3, Homo sapiens, UniProt Q16644)	94.3
Homeodomain-interacting protein kinase 2 (HIPK2, Homo sapiens, UniProt Q9H2X6)	92.1
Ephrin type-A receptor 4 (EPHA4, Homo sapiens, UniProt P54764)	99.3
Tyrosine-protein kinase Srms (SRMS, Homo sapiens, UniProt Q9H3Y6)	104
Ribosomal protein S6 kinase alpha-5 (RPS6KA5, Homo sapiens, UniProt O75582)	95.3
cAMP-dependent protein kinase catalytic subunit gamma (PRKACG, Homo sapiens, UniProt P22612)	99.8
Dual specificity tyrosine-phosphorylation-regulated kinase 3 (DYRK3, Homo sapiens, UniProt O43781)	92.6
Homeodomain-interacting protein kinase 4 (HIPK4, Homo sapiens, UniProt Q8NE63)	86.3

Study 2
Cell line: A-375
Concentration: 100 µM
Time: 18 h
SMILES	viability
CC(=O)SCC(Cc1ccccc1)C(=O)NCC(=O)OCc1ccccc1 (stereo not drawn)	110%
CCOC(CN1CCN(CC(C)C(=O)c2ccccc2)CC1)c1ccccc1 (stereo not drawn)	60.9%
O=C(O)c1ccccc1C(=O)Nc1ccc(S(=O)(=O)Nc2nccs2)cc1	86%
O=C(O)[C@@H]1CSCN1	81.1%
O=c1[nH]cc(F)c(=O)[nH]1	91%
COc1ccc(O)cc1	88.6%
N[C@@H](Cc1c[nH]c2ccccc12)C(=O)O	72.2%
CCCNS(=O)(=O)Nc1ncnc(OCCOc2ncc(Br)cn2)c1-c1ccc(Br)cc1	91.4%
NC(CO)(CO)CO	94.9%
Cc1cc(C#N)cc(C)c1Oc1nc(Nc2ccc(C#N)cc2)nc(N)c1Br	34.7%

Study 3
Host: human
Medium: microsomes or S9
Concentration: 2 µM
Time: 0.5 h
SMILES	remaining compound [%]
Cc1cc(C)n(-c2nncn2/N=C/c2cccc3ccccc23)n1	63.5
CN1CCC(=C2c3ccccc3CCc3sccc32)CC1	73.6
O=S1(=O)N=C(N2CCCCC2)c2ccccc21	98.9
Cc1nn(CC(O)Cn2cnc3c2c(=O)n(C)c(=O)n3C)c(C)c1Br (stereo not drawn)	67
CCc1ccc(NC(=O)N2Cc3c(sc4c3CCCC4)-n3cccc3C2C(C)C)cc1 (stereo not drawn)	23.9
Cc1ccc2c(c1)c(N1CCCC1=O)c(C(=O)NCC1CCCO1)n2C (stereo not drawn)	> 100
OC1CCOc2c(NCCc3ccccc3F)cccc21 (stereo not drawn)	46.4
O=c1c2ccc(F)cc2ncn1C/C=C/c1ccccc1	105
O=C(O)CCCCC/N=C1\CCc2ccccc2N1	> 99.9
CS(=O)(=O)N1CCN(CCCOc2ccc3c(c2)C(=O)C(c2cnc4ccccc4c2)=C3c2ccc(F)cc2F)CC1	84.6

Study 4
Structure (SMILES): C[C@H](c1cccc(C#N)c1)n1cc(Cl)cc(C(N)=O)c1=N
Concentration: 1 µM
target	effect on	technique	remaining binding [%]
Bone morphogenetic protein receptor type-1B (BMPR1B, Homo sapiens, UniProt O00238)	cell-free assay	competition with immobilised ligand	94
Ephrin type-A receptor 6 (EPHA6, Homo sapiens, UniProt Q9UF33)	cell-free assay	competition with immobilised ligand	86
Serine/threonine-protein kinase PRP4 homolog (PRPF4B, Homo sapiens, UniProt Q13523)	cell-free assay	competition with immobilised ligand	93
Serine/threonine-protein kinase PAK 4 (PAK4, Homo sapiens, UniProt O96013)	cell-free assay	competition with immobilised ligand	100
Mitogen-activated protein kinase kinase kinase 13 (MAP3K13, Homo sapiens, UniProt O43283)	cell-free assay	competition with immobilised ligand	97
Serine/threonine-protein kinase SIK1 (SIK1, Homo sapiens, UniProt P57059)	–	competition binding	100
Megakaryocyte-associated tyrosine-protein kinase (MATK, Homo sapiens, UniProt P42679)	cell-free assay	competition with immobilised ligand	100
Mast/stem cell growth factor receptor Kit (KIT, Homo sapiens, UniProt P10721, A829P)	cell-free assay	competition with immobilised ligand	95
Atypical kinase COQ8A, mitochondrial (COQ8A, Homo sapiens, UniProt Q8NI60)	cell-free assay	competition with immobilised ligand	88
Receptor-type tyrosine-protein kinase FLT3 (FLT3, Homo sapiens, UniProt P36888, D835Y)	cell-free assay	competition with immobilised ligand	96
Mitogen-activated protein kinase 15 (MAPK15, Homo sapiens, UniProt Q8TD08)	cell-free assay	competition with immobilised ligand	100
ALK tyrosine kinase receptor (ALK, Homo sapiens, UniProt Q9UM73)	cell-free assay	competition with immobilised ligand	79
Serine/threonine-protein kinase 17B (STK17B, Homo sapiens, UniProt O94768)	cell-free assay	competition with immobilised ligand	73
Dual specificity mitogen-activated protein kinase kinase 7 (MAP2K7, Homo sapiens, UniProt O14733)	cell-free assay	competition with immobilised ligand	72
Serine/threonine-protein kinase mTOR (MTOR, Homo sapiens, UniProt P42345)	cell-free assay	competition with immobilised ligand	91
Serine/threonine-protein kinase D3 (PRKD3, Homo sapiens, UniProt O94806)	cell-free assay	competition with immobilised ligand	65
